Published values pooled from the literature.
Protocols differ between the studies behind these lines. Several values in a cell are separate wells, animals, samples, runs or records. ± marks the error that the study gave.

insulin human
fold change (item: SLC1A2 mRNA; mouse, uninfected, brain; intraperitoneal, dose not given; baseline: PBS): 1.26

gag CA CTD fragment (Rous sarcoma virus)
Kd (itself; ITC): 110 ± 30 µM

cmeC (Campylobacter jejuni)
subunits per oligomer (itself; semi-native SDS-PAGE): 3

gag CA CTD fragment D155Y/R185W (Rous sarcoma virus)
Kd (itself; ITC): 990 ± 280 µM

ACT1 fragment (Toxoplasma gondii)
critical concentration (itself; single-filament epifluorescence microscopy; pointed end): 91.9 µM and 84.3 µM and 44.3 µM

dye-decolorizing peroxidase (Klebsiella pneumoniae)
subunits per oligomer (itself; cryo-EM): 6

triosephosphate isomerase N11A/E65Q (Leishmania mexicana)
Ka (itself; enzyme activity; monomer-dimer equilibrium fit): > 3e+12 M⁻¹

OseR (Streptococcus suis)
dimer-to-monomer ratio (itself; non-reducing Western blot; lysate; in vivo, not purified, added: H2O2; baseline: untreated, higher = more dimer): 2.82 fold

gag CA CTD fragment F167Y (Rous sarcoma virus)
Kd (itself; ITC): > 1500 µM

CapV apo, wild type (Acinetobacter baumannii)
subunits per oligomer (itself; SEC): 2

Some of these lines once more:
OseR (Streptococcus suis)
dimer-to-monomer ratio (itself; non-reducing Western blot; lysate; in vivo, not purified, added: H2O2; baseline: untreated, higher = more dimer): 2.82 fold
